Measurements of several laboratories.
Lines come from different studies, so protocols differ. Several values in a cell are separate wells, animals, samples, runs or records. ± gives the spread as reported. ≈ marks a conversion by molar mass, not a printed value.

`Cn1nc([N+](=O)[O-])nc1Oc1ccccc1C(=O)N1CCOCC1` gave a Kd of over 100 µM (Cyclin-dependent kinase 2, with cyclin A (CDK2, Homo sapiens, UniProt P24941)).
`C=CC(=O)NC1CCN(c2ncc3ncnc(Nc4ccc(Oc5ccc6c(c5)ncn6C)c(C)c4)c3n2)CC1` gave a terminal half-life of 52.9 h (healthy male volunteers, plasma; oral, 60 mg, [14C]-labelled oral solution).
`O=C(O)CSc1nnc(Br)n1-c1ccc(C2CC2)c2ccccc12` has a body weight of 33.2 g and 35 g and 39 g and 40.8 g and 37.4 g and 38 g (KM mouse, chronic hyperuricaemia model; dose not given, day 28).
`O=C(c1cccnc1-c1ccncc1)N1CCC(O)(Cc2ccccc2)CC1`: “terminal elimination rate constant” 6.39e-05 s⁻¹ (healthy Japanese adults, plasma; oral, 100 mg twice daily, day 7).
`NS(=O)(=O)c1cc(C(=O)O)c(NCc2ccco2)cc1Cl`: “subjects with adverse event” 0% (measured: thirst; healthy men; oral, 8 days, treatment-emergent, crossover trial).
For `COc1nnc2ccc(N3CCC(c4ccc(OCCN5CCN(C)C(=O)[C@H]5C)cc4)CC3)nn12`, the terminal half-life was 1.77 h (patients, plasma; oral, 10 mg twice daily, single dose, monotherapy).
With `O=C(COc1ccccc1[N+](=O)[O-])Nc1ccccc1N1CCOCC1` the Kd was over 100 µM (Cyclin-dependent kinase 2 (CDK2, Homo sapiens, UniProt P24941); binding).
`C[C@@H](N)C1CCN(S(=O)(=O)c2cccc3cnccc23)CC1` has a TEAE incidence of 0% (measured: Rash; healthy volunteers; 25 mg, fasted).
`O=C(O)CCCOc1ccc([18F])cc1-c1cc(-c2ccccc2C(F)(F)F)n(-c2ccccc2)n1` has a radioactivity uptake of 0.45 ± 0.16 SUV (gamma counting; male ddY mice, spleen; intravenous, 2.1 MBq, 5 min).
The plasma concentration of `COc1cccc(-c2n[nH]c(SCc3ccccn3)n2)c1OC` is reported as 0.4 µg/mL (Sprague-Dawley rats, both sexes; oral dietary, 30 mg/kg/day, day 90, 24 h).
The tissue concentration of `CN(C(=O)n1cnc(-c2ccc[n+]([O-])c2)c1)[C@H]1CC[C@H](O)CC1` is reported as 8.7 ± 0.9 ng/g (rat, cerebellum; oral, 10 mg/kg daily for 5 days, 4 h).
`CCO`: “blood pressure increased” 27.8% (human; concentration not given, treatment-emergent adverse event).
`Cc1ccc(C)c(OCCCC(C)(C)C(=O)O)c1` — result for “geometric mean ratio”: 1.69 (measured: CL/F; human subjects, plasma; oral, dose not given, with: lopinavir-ritonavir; reference: with over without lopinavir-ritonavir).
For `O=C1CCCCN1c1ccc(CO[C@@H]2COc3nc([N+](=O)[O-])cn3C2)cn1`, the aqueous solubility was 0.0283 mg/mL (≈ 75.8 µM) (aqueous buffer; pH 7.4).
For `Cc1cc(-c2nnc(N)nc2-c2ccc(F)cc2)cc(Cl)n1`, “patients with treatment-related AE” read 84% (human, IO-naive CRC; oral, dose not given, phase Ia/Ib, any grade).
With `CNCc1ccc(-c2[nH]c3cc(F)cc4c3c2CCNC4=O)cc1` the dizziness incidence was 0% (human patients; oral, 600 mg twice daily, grade 4).
Under “urinary magnesium excretion change”, `Cc1ccc([C@@H]2O[C@H](CO)[C@@H](O)[C@H](O)[C@H]2O)cc1Cc1ccc(-c2ccc(F)cc2)s1` is recorded as 6.77 mg (Japanese type 2 diabetes patients; 200 mg, day 16, 24 h urine collection; reference: baseline).
`CC[C@H](C)C(=O)O[C@H]1C[C@@H](C)C=C2C=C[C@H](C)[C@H](CC[C@@H]3C[C@@H](O)CC(=O)O3)[C@H]21` gave a remaining compound of 95.2% (dog, Beagle, both sexes, whole blood; 5 µM, 15 min).
`COc1ccc2c(=O)n(C)c(-c3ccccc3)nc2c1` gave a tissue/plasma ratio of 4.72 (Sprague-Dawley rat, male, kidney; oral, 30 mg/kg, 0.25 h; reference: kidney over plasma).
For `C=CCN1CC(=O)N2[C@@H](Cc3ccc(O)cc3F)C(=O)N(Cc3cccc(N4CC(N5CCN(CC)CC5)C4)n3)C[C@@H]2N1C(=O)NCc1ccccc1`, “treatment-related decreased appetite” read 0% (advanced solid tumour patients; oral, 30 mg twice daily, grade ≥3, dose-escalation).
`CNCCOC12CC3(C)CC(C)(CC(Cn4ncc(-c5ccc(N6CCc7cccc(C(=O)Nc8nc9ccccc9s8)c7C6)nc5C(=O)O)c4C)(C3)C1)C2` — result for “mean arterial pressure change”: -5% (beagle dog, male, anaesthetised; intravenous bolus, 0.03 mg/kg, 10 min; reference: baseline).
For `C[C@H](CCC(=O)NCC(=O)O)[C@H]1CC[C@H]2[C@@H]3CC[C@@H]4C[C@H](OS(=O)(=O)O)CC[C@]4(C)[C@H]3CC[C@]12C`, “relative peak deviation” read 85.4 ± 9.5% (human, plasma; endogenous baseline diurnal; reference: daily mean concentration).
`COc1ccc(CNc2nc(-c3ccc(C(=O)O)cc3)nc3c2c2ccccc2n3C)cc1Cl` gave a body weight of 25.2 g and 23.2 g and 19.7 g and 22.5 g (NSG mice; dose not given, day 2).
With `CCN1/C(=C/C(C)=O)Sc2ccc(F)cc21` the QT interval was 262 ± 36 ms (cynomolgus monkey; oral, 100 mg/kg, 4 h post-dose).
`N#Cc1ccc(C(c2ccc(C#N)cc2)n2cncn2)cc1`: “unbound Cmax at steady state” 1.39 ± 0.12 µM (human patients, plasma; oral, 12.5 mg daily).
For `O=C(O)CCC(=O)O.[2H]C([2H])([2H])Oc1cc(C)c2[nH]ccc2c1CN1CC[C@@H](C2CC2)C[C@H]1c1ccc(C(=O)O)cc1`, “subjects with elevated AST TEAE” read 0% (multiple ascending dose; healthy Chinese subjects; 200 mg once daily).
`Cc1ccc(C)c(OCCCC(C)(C)C(=O)O)c1` — result for “trough plasma concentration”: 1680 ng/mL (human, plasma; oral, dose not given, day 14 predose, geometric mean).
Under “geometric mean Cmax”, `COc1ncc(-c2nc3c(n2C(C)C)[C@H](c2ccc(Cl)cc2)N(c2cc(Cl)cn(C)c2=O)C3=O)c(OC)n1` is recorded as 0.039 µg/mL (human patients, plasma; oral, 7.5 mg, cycle 1 day 1, low-dose).
The blood concentration of `COc1ccc2c(c1)CN(C(=O)CCN1CCC(Cc3ccccc3)CC1)CC[S@@+]2[O-]` is reported as 7.59 ± 1.41 µg/mL (beagle dog, male; intravenous, 8 mg/kg, 14-day toxicity study).
`CCn1ncc2c1-c1cnc(N)c(c1)O[C@H](C)c1cc(F)ccc1-c1nn(C)nc1C2` — result for “unbound plasma concentration”: 0.55 ± 0.006 µM (female athymic nude mice, sample A PDX; oral, 5 mg/kg once daily for 1 days, 1 h).
`O=C(Nc1cnccc1Cl)N1CCN(Cc2ccc3c(c2)OC(F)(F)O3)CC1` has a dose-normalized AUC(0-tau) of 882 ng·h/mL (young men, plasma; oral, 25 mg once daily, day 10, normalized to 10 mg).
For `CC(C)[C@H](C(=O)Nc1ccc(C(=O)NO)cc1)c1ccccc1`, the measured concentration was 1060 ng/mL (whole blood; 1000 ng/mL, 3 h, 4 °C, stability on ice).
`[18F]c1ccc(-c2ccc3c(c2)[nH]c2ccncc23)cn1` gave an SUV of 0.728 ± 0.19 (microPET/CT imaging; B6SJL mouse, normal, heart; intravenous, 10 min).
The AUC0-last ratio of `O=C(c1nc2n(n1)[C@H](c1ccccc1)C[C@@H]2F)C1CC1` is reported as 1 (human; oral, 75 mg; reference: high-fat meal over fasted).
`C[C@@H]1CCO[C@H]2Cn3cc(C(=O)NCc4ccc(F)cc4F)c(=O)c(O)c3C(=O)N12` has an AUC(0-24) of 68.8 µg·h/mL (population PK, post-hoc; children, 20 to <25 kg, plasma; oral, 30 mg dispersible tablet, steady state, geometric mean).
`CCc1cc(C(=O)NC)c2nccc(N3CCc4c(cc(Cn5ccnc5)cc4-c4cn(C)nc4C(F)(F)F)C3=O)c2c1`: “serum RBC change” -0.89% (Sprague Dawley rats; oral, 50 mg/kg once daily, 7 days; reference: vehicle).
For `CC(C)(C(=O)N1CCOc2c(C#N)cncc2C1)C(F)F`, “subjects with TEAE” read 0% (measured: vascular disorders; healthy humans, both sexes; oral, 40 mg single dose).
The half-life of `Cc1cccc(CNC(=O)c2cn(CCNC(=O)c3ccccc3Sc3c([N+](=O)[O-])ncn3C)c3cc4c(cc3c2=O)OC(F)(F)O4)n1` is reported as 0.55 ± 0.2 h (Sprague-Dawley rat, male, plasma; intravenous, 5 mg/kg of parent drug).
`CNC(=O)c1ccc(-c2cnc3ncc(Cc4ccc5ncccc5c4)n3n2)cc1F` — result for “blood creatinine increased dose reduction/interruption”: 0% (Japanese patients; oral, 400 mg, grade 3/4).
`N#Cc1ccc2c(c1)[C@H]1CCCN(C(=O)c3ccc4[nH]cnc4c3)[C@H]1C2`: “ACTH level change” 2.2 pmol/L (human; 80 mg, day 15; reference: baseline).
The dose-normalised AUC(0-last) of `C[C@@]1(c2cc(NC(=O)c3ccc(C#N)cn3)ccc2F)C=CSC(N)=N1` is reported as 83.7 ng·h/mL (elderly humans, both sexes, plasma; oral, 30 mg single dose).

For quick reference, copied from above:
`C[C@@H]1CCO[C@H]2Cn3cc(C(=O)NCc4ccc(F)cc4F)c(=O)c(O)c3C(=O)N12` has an AUC(0-24) of 68.8 µg·h/mL (population PK, post-hoc; children, 20 to <25 kg, plasma; oral, 30 mg dispersible tablet, steady state, geometric mean).
`CCn1ncc2c1-c1cnc(N)c(c1)O[C@H](C)c1cc(F)ccc1-c1nn(C)nc1C2` — result for “unbound plasma concentration”: 0.55 ± 0.006 µM (female athymic nude mice, sample A PDX; oral, 5 mg/kg once daily for 1 days, 1 h).
With `O=C(COc1ccccc1[N+](=O)[O-])Nc1ccccc1N1CCOCC1` the Kd was over 100 µM (Cyclin-dependent kinase 2 (CDK2, Homo sapiens, UniProt P24941); binding).
`[18F]c1ccc(-c2ccc3c(c2)[nH]c2ccncc23)cn1` gave an SUV of 0.728 ± 0.19 (microPET/CT imaging; B6SJL mouse, normal, heart; intravenous, 10 min).
